Measurements from different studies.
Each line is one published result; not all experiments were run side by side. ± gives the spread as reported.

NS(=O)(=O)OC[C@@H]1C[C@@H](n2ccc3c(N[C@H]4CCc5ccccc54)ncnc32)C[C@@H]1O — Cmax (human; intravenous, 8 mg/m^2, day 1): 59.1 ng/mL
N#CCNC(=O)c1ccc(-c2ccnc(Nc3ccc(N4CCOCC4=O)cc3)n2)cc1 — Cmax (human, plasma; oral, 100 mg momelotinib once daily, cycle 1 day 15, mean, added: trametinib 1.0 mg once daily): 268 ng/mL
COC(=O)c1ccc2c(c1)NC(=O)/C2=C(\Nc1ccc(N(C)C(=O)CN2CCN(C)CC2)cc1)c1ccccc1 — Cmax (human, hepatic impairment Child-Pugh A, plasma; oral, 100 mg single dose, fed, adjusted geometric mean): 20.5 ng/mL
CN1CC[C@H](c2c(O)cc(O)c3c(=O)cc(-c4ccccc4Cl)oc23)[C@H](O)C1 — Cmax (human patients, phase I, plasma; intravenous, 70 mg/m^2, cycle 1, mean, added: doxorubicin 60): 2220 nM
CC(C)(C(=O)NCC(F)(F)C(F)(F)F)C(=O)N[C@@H]1C(=O)Nc2ccccc2-c2ccccc21 — Cmax (human, plasma; oral, 10 mg, day 1): 177 ng/mL
CN1CC[C@H](c2c(O)cc(O)c3c(=O)cc(-c4ccccc4Cl)oc23)[C@H](O)C1 — Cmax (human advanced solid tumours, plasma; intravenous, 80 flavopiridol, added: oxaliplatin 85 + leucovorin/5-FU): 1720 ± 540 nM
CC(C)(Sc1ccncc1-c1ccc(C#N)c2ccccc12)C(=O)O — Cmax (human, plasma; oral, 2.5 mg, added: febuxostat 40 mg): 3.45 ng/mL
CNCc1ccc(-c2[nH]c3cc(F)cc4c3c2CCNC4=O)cc1 — Cmax (human patients, plasma; oral, 40 mg once daily, day 15, steady state, arithmetic mean): 138 ng/mL
COc1c(OCCCN2CCOCC2)ccc2c1N=C(NC(=O)c1cnc(N)nc1)N1CCN=C21 — Cmax (human cancer patients, plasma; intravenous, 0.4 mg/kg weekly, cycle 1 day 1, compound alone, geometric mean): 118 ng/mL
Cc1[nH]c(/C=C2\C(=O)Nc3ccccc32)c(C)c1CCC(=O)O — Cmax (human patients; oral, 400 mg/m^2 three times daily, after meal, dose 82): 6050 ± 2410 ng/mL
CS(=O)(=O)n1cc2c(n1)CN([C@@H]1C[C@H](N)[C@@H](c3cc(F)ccc3F)O[C@@H]1C(F)(F)F)C2 — Cmax (human; oral, 25 mg every two weeks, steady state): 822 ng/mL
O=C(CCCCCCC(=O)Nc1ccccc1)NO — Cmax (human, serum; oral, 300 mg, mean): 661 nM
C#C[C@]1(CO)O[C@@H](n2cnc3c(N)nc(F)nc32)C[C@@H]1O — Cmax (human, plasma; oral, 10 mg once weekly, week 3): 241 nM
CN1C(=O)[C@@H](NC(=O)c2nnc(Cc3ccccc3)[nH]2)COc2ccccc21 — Cmax (human male, plasma; oral, 120 mg twice daily, day 14): 1440 ng/mL
CN1CCc2nc(C(=O)N[C@@H]3C[C@@H](C(=O)N(C)C)CC[C@@H]3NC(=O)C(=O)Nc3ccc(Cl)cn3)sc2C1 — Cmax (healthy humans ABCB1 rs1045642 CC, plasma; oral, 60 mg single dose): 246 ± 96.6 ng/mL
CON(C)C(=O)N1N=C(c2cc(F)ccc2F)S[C@@]1(CCCN)c1ccccc1 — Cmax (human patients, plasma; intravenous, 1.8 mg/m2, cycle 1 day 3): 47.1 ng/mL
CC(C)NC[C@@H](C(=O)N1CCN(c2ncnc3c2[C@H](C)C[C@H]3O)CC1)c1ccc(Cl)cc1 — Cmax (human, severe hepatic impairment (Child-Pugh), plasma; oral, 100 mg single dose, geometric mean): 80 ng/mL
CC[C@H](C)[C@@H]1NC(=O)[C@H](CCCNC(=N)N)NC(=O)[C@H](CC(=O)O)NC(=O)[C@H](CC(C)C)NC(=O)[C@H](CCCCN)NC(=O)[C@H](CC(C)C)NC(=O)CNC(=O)[C@H](Cc2ccccc2)NC(=O)[C@@H](NC(=O)CNC(=O)[C@H](CCCCN)NC(=O)[C@H](CO)NC(=O)[C@H](CC(C)C)NC(=O)CNC(=O)[C@H](CCCCN)NC(=O)[C@H](CCCCN)NC(=O)[C@H](CC(N)=O)NC(=O)[C@H](C)NC(=O)CNC(=O)[C@H](CCCCN)NC(=O)[C@H](Cc2ccc(O)cc2)NC(=O)[C@H](CCCCN)NC(=O)[C@H](CCCNC(=N)N)NC(=O)[C@H](C)NC(=O)[C@H](CC(N)=O)NC(=O)[C@@H]2CCCN2C(=O)[C@H](Cc2c[nH]cn2)NC(=O)[C@H](CCC(=O)O)NC(=O)[C@H](CCC(N)=O)NC(=O)CNC(=O)[C@@H]2CCCN2)CSSC[C@@H](C(=O)O)NC(=O)CNC(=O)[C@H](CC(C)C)NC(=O)CNC(=O)[C@H](CO)NC(=O)[C@H](CCSC)NC(=O)[C@H](CO)NC(=O)CNC1=O — Cmax (ECLA; human, plasma; subcutaneous, 15 µg/kg once daily, day 1): 7.18 ng/mL

For quick reference, copied from above:
CC(C)(C(=O)NCC(F)(F)C(F)(F)F)C(=O)N[C@@H]1C(=O)Nc2ccccc2-c2ccccc21 — Cmax (human, plasma; oral, 10 mg, day 1): 177 ng/mL
CN1CC[C@H](c2c(O)cc(O)c3c(=O)cc(-c4ccccc4Cl)oc23)[C@H](O)C1 — Cmax (human advanced solid tumours, plasma; intravenous, 80 flavopiridol, added: oxaliplatin 85 + leucovorin/5-FU): 1720 ± 540 nM
